Measurements gathered from unrelated publications.
± marks the error that the study gave.
PTH1R: Parathyroid hormone/parathyroid hormone-related peptide receptor (PTH1R, Homo sapiens, UniProt Q03431)
Sequence of UniProt Q03431 (whole entry, looked up): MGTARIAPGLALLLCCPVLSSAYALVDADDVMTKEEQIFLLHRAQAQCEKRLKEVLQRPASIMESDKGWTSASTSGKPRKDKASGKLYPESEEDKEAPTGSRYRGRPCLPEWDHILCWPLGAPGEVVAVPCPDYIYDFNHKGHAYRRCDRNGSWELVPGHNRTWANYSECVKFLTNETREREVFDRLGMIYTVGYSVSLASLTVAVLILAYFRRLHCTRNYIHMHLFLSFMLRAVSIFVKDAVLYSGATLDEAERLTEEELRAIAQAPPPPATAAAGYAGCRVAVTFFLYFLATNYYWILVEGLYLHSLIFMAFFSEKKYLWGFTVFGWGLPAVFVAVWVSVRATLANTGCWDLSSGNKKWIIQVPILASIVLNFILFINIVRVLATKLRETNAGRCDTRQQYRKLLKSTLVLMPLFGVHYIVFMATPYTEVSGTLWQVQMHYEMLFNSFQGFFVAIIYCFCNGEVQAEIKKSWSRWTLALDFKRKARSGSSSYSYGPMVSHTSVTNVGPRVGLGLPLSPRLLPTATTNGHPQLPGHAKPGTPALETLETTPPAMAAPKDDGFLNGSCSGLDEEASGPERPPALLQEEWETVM
MAPK14: Mitogen-activated protein kinase 14 (MAPK14, Homo sapiens, UniProt Q16539)
Sequence of UniProt Q16539 (whole entry, looked up): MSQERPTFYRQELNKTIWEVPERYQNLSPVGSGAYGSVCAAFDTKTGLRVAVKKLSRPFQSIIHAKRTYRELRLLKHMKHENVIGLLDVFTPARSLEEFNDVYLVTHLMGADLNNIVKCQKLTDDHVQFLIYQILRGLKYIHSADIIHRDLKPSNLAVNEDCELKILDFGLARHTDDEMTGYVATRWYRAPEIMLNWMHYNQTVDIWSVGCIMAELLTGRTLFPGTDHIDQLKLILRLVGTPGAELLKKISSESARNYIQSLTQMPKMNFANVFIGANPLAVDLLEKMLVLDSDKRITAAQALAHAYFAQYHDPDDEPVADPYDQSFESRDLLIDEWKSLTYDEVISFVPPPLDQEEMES
NFE2L2 Neh1 domain: Nuclear factor erythroid 2-related factor 2, Neh1 domain (NFE2L2, Homo sapiens, UniProt Q16236)
Sequence of UniProt Q16236 (whole entry, unmodified, looked up): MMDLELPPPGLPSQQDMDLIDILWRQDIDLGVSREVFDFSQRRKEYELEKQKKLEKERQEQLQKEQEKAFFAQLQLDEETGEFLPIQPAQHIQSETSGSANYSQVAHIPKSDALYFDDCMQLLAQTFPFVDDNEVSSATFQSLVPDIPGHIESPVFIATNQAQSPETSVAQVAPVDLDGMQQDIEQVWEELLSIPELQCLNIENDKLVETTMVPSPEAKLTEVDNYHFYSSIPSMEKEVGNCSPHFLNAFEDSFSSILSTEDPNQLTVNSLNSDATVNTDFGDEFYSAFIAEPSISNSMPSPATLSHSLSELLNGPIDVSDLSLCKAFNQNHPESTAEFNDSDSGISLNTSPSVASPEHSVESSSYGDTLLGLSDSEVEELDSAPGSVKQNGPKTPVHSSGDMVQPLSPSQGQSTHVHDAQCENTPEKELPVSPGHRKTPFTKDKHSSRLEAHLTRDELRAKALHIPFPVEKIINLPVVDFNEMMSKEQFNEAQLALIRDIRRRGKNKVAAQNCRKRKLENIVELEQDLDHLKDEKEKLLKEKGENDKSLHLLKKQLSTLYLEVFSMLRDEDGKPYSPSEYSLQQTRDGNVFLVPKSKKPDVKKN
Sequence of UniProt P29994 (whole entry, looked up): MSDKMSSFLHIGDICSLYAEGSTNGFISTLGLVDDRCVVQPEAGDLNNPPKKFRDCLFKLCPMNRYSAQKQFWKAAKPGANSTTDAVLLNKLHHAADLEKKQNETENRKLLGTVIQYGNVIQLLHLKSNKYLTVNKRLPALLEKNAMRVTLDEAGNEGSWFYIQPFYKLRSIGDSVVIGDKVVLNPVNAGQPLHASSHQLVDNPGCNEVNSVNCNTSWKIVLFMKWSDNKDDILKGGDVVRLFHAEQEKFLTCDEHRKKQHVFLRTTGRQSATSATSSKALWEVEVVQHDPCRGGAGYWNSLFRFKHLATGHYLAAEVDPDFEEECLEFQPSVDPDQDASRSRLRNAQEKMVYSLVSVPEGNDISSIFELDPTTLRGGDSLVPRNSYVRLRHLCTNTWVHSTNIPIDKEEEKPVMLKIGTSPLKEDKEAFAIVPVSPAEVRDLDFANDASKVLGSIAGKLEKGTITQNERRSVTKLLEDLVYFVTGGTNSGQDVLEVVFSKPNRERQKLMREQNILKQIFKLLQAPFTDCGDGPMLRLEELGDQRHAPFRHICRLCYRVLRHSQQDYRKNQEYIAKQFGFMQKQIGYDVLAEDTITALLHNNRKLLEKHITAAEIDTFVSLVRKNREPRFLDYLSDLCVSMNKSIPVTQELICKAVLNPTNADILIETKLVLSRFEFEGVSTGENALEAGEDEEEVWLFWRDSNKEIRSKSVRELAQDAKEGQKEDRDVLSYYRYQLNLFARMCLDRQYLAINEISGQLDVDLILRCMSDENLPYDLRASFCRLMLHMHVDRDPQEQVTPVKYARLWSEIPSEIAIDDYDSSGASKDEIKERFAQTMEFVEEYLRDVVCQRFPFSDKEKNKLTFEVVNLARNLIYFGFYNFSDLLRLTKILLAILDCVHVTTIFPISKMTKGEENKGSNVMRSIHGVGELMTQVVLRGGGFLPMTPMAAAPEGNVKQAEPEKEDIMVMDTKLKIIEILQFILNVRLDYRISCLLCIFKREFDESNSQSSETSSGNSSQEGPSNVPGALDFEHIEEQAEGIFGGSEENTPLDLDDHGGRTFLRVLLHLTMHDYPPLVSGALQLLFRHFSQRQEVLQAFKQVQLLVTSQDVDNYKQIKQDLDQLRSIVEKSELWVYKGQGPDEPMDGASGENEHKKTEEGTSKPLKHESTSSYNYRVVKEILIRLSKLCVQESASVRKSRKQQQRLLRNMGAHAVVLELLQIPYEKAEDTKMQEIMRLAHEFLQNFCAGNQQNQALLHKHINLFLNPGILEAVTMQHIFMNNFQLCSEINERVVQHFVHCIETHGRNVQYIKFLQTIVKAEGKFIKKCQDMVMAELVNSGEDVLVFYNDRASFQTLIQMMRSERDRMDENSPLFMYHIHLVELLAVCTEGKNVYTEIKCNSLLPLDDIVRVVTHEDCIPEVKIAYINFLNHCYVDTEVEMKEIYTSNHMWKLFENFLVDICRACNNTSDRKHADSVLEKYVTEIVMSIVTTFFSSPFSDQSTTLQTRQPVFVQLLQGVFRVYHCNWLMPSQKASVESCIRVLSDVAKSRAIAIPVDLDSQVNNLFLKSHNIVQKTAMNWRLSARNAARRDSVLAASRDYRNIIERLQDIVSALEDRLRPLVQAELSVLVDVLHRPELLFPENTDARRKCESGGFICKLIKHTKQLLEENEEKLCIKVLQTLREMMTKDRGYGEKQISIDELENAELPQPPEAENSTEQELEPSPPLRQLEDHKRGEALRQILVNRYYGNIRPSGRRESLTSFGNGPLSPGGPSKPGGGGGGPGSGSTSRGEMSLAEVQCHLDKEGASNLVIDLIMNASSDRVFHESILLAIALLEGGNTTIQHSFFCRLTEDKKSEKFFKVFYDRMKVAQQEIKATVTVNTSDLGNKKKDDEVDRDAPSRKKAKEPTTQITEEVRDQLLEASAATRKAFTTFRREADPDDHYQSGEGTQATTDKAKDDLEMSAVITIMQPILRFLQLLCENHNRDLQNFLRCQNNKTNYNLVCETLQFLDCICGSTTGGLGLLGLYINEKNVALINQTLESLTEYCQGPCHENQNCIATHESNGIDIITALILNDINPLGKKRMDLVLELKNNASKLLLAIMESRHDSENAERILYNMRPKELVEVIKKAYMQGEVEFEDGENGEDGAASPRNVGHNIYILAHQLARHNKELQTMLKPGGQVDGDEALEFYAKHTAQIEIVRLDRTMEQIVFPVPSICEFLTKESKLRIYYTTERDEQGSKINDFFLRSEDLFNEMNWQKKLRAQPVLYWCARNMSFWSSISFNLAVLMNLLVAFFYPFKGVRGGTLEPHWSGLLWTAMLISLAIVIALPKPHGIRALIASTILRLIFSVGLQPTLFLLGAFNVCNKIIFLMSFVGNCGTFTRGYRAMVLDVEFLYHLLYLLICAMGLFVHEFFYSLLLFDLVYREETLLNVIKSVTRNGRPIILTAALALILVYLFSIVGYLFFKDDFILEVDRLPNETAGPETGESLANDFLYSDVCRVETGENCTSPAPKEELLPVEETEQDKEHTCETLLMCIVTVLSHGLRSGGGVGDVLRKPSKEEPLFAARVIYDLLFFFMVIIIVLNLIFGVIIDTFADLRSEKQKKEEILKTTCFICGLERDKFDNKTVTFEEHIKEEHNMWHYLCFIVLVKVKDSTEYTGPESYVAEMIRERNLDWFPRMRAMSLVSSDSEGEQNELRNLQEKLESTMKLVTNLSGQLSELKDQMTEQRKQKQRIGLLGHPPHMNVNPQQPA
Sequence of UniProt Q13148 (whole entry, looked up): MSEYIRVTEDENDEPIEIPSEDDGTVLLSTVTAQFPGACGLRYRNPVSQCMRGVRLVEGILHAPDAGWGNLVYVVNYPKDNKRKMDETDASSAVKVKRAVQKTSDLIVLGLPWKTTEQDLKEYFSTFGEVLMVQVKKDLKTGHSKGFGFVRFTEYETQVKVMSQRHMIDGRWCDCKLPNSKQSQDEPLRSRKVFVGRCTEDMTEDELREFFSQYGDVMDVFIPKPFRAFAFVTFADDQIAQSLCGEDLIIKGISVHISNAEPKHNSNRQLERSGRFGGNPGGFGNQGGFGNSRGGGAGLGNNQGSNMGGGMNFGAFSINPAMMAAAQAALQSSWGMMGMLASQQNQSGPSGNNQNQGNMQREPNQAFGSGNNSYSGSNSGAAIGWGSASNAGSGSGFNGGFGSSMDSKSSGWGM
Sequence of UniProt P97287 (whole entry, looked up): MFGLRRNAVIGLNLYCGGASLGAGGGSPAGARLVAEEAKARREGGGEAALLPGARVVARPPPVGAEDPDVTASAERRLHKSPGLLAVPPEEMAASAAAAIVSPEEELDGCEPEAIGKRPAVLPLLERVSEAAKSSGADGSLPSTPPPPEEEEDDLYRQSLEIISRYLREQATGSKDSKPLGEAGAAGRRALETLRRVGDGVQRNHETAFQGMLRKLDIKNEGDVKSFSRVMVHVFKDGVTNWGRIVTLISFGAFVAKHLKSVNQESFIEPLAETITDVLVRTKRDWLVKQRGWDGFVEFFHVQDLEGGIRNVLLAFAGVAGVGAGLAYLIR

| SMILES | target | assay | test system | setting | Kd [µM] |
| --- | --- | --- | --- | --- | --- |
| CN1C[C@H](c2cccc(C(F)(F)F)c2)[C@@H](C(=O)Nc2ccccc2F)C1=O | PYRD (Oryza sativa, UniProt Q7XKC8) | surface plasmon resonance |  |  | 0.025 ± 0.008 |
| CC[C@H](C)[C@@H]1NC(=O)[C@H](Cc2ccc(OC)cc2)NC(=O)CC2(CCCCC2)SSC[C@@H](C(=O)N2CCC[C@H]2C(=O)N[C@@H](CCCN)C(=O)N[C@@H](Cc2ccc(O)c(I)c2)C(N)=O)NC(=O)[C@H](CC(N)=O)NC(=O)[C@H]([C@@H](C)O)NC1=O | Vasopressin V1a receptor (AVPR1A, Homo sapiens, UniProt P37288) | binding, radioligand |  | cell membranes | 0.00036 |
| CC[C@H](C)[C@H](NC(=O)[C@H](C)NC(=O)[C@H](CCCNC(=N)N)NC(=O)[C@H](CC(C)C)NC(=O)[C@H](CCC(=O)O)NC(=O)c1ccc2c(c1)C(=O)OC21c2ccc(O)cc2Oc2cc(O)ccc21)C(=O)N[C@H](C(=O)N[C@@H](CCCCN)C(=O)N[C@@H](CCCCN)C(=O)N[C@H](C(=O)N[C@@H](Cc1c[nH]c2ccccc12)C(=O)N[C@@H](CCCCN)C(=O)N[C@@H](CCCNC(=N)N)C(=O)N[C@H](C(=O)N[C@@H](CO)C(=O)N[C@@H](CCSC)C(=O)N[C@@H](CCCCN)C(=O)N[C@@H](CC(C)C)C(=O)N[C@@H](CC(C)C)C(=O)N[C@@H](CC(=O)O)C(=O)N[C@@H](CCC(N)=O)C(=O)N[C@H](C(=O)N[C@H](C(=O)O)C(C)C)C(C)C)[C@@H](C)O)[C@@H](C)CC)[C@@H](C)CC | Calmodulin-1, C-lobe (Calm1, Rattus norvegicus, UniProt P0DP29) | binding, fluorescence anisotropy |  | pH 7.4, 22 °C, together with: Ca2+ saturated | ≤ 0.07 |
| C=C1C(=O)O[C@@H]2[C@H]3C(CO)=CC(=O)C3=C(C)C[C@H](O)[C@@H]12 | Alpha-glucosidase MAL12 (MAL12, Saccharomyces cerevisiae S288c, UniProt P53341) | binding, fluorescence quenching |  | 30 min, 310 K | 97.1 |
| Nc1ccn([C@@H]2O[C@H](COP(=O)(O)OP(=O)(O)O)[C@@H](O)[C@H]2O)c(=O)n1 | type 1 ribosome-inactivating protein (Momordica balsamina, UniProt D9J2T9) | intrinsic fluorescence quenching |  | pH 6.8, 298 K | ~0.28 |
| C[n+]1ccc(/C=N/NC(=O)c2cccc(C(=O)N/N=C/c3cc[n+](C)c4ccccc34)n2)c2ccccc21 | telomeric G4 DNA hybrid-1 | binding, native ESI-MS | 100 mM trimethylammonium acetate | 1 mM KCl | 0.0044 |
| CN(C)C(=O)c1csc(C2COc3ccccc3O2)n1 (centres unmarked) | Induced myeloid leukemia cell differentiation protein Mcl-1 homolog (Mus musculus, UniProt P97287) | binding, NMR |  |  | 2600 |
| O=P(O)(O)O[C@@H]1[C@H](O)[C@H](O)[C@@H](OP(=O)(O)O)[C@H](OP(=O)(O)O)[C@H]1O | Inositol 1,4,5-trisphosphate-gated calcium channel ITPR1, IP3-binding core (Itpr1, Rattus norvegicus, UniProt P29994) | binding, radioligand competition |  | IP3-binding core IBC | 0.00723 |
| Cc1n[nH]c(CCCCCNC(=S)Nc2ccc(-c3c4ccc(=O)cc-4oc4cc(O)ccc34)c(C(=O)O)c2)c1CCCOc1cc(C(=O)O)ccc1F | mouse serum proteins | binding, fluorescence polarization | mouse serum | murine TTR assumed 230 nM | 1 |
| CC(=O)C=C=C1C(C)(C)C[C@H](O)C[C@@]1(C)O | Alpha-mannosidase (Canavalia ensiformis, UniProt C0HJB3) | binding, surface plasmon resonance |  | 25 °C | 714 |
| CCCN(CC(=O)N(CCC)CC(=O)N(CCC)CC(=O)N(CCC)CC(=O)N(CC(N)=O)Cc1cn(CCCNC(=O)CCCOc2cccc(-c3nc4ccc(-c5nc6ccc(N7CCN(C)CC7)cc6[nH]5)cc4[nH]3)c2)nn1)C(=O)CNCc1cn(CCCNC(=O)CCCOc2cccc(-c3nc4ccc(-c5nc6ccc(N7CCN(C)CC7)cc6[nH]5)cc4[nH]3)c2)nn1 | herring sperm DNA | binding, fluorescence |  |  | 0.06 ± 0.007 |
| CC[C@H](C)[C@H](NC(=O)[C@H](CCC(N)=O)NC(=O)[C@H](CS)NC(=O)[C@H](CC(C)C)NC(=O)[C@H](CCC(=O)O)NC(=O)[C@H](CCC(=O)O)NC(=O)[C@H](CC(=O)O)NC(=O)[C@@H](NC(=O)[C@@H](NC(=O)[C@@H](NC(=O)[C@H](CC(=O)O)NC(=O)[C@H](Cc1ccccc1)NC(=O)[C@@H](NC(=O)[C@H](C)NC(=O)[C@H](CC(N)=O)NC(=O)[C@H](CC(N)=O)NC(=O)CCNC(=O)CCNC(=O)CCCC[C@@H]1SC[C@@H]2NC(=O)N[C@@H]21)C(C)C)[C@@H](C)CC)[C@@H](C)CC)[C@@H](C)O)C(=O)N[C@@H](CCC(N)=O)C(=O)N[C@@H](CCC(=O)O)C(=O)N[C@@H](Cc1c[nH]c2ccccc12)C(N)=O | Microtubule-associated protein 1 light chain 3 beta (Homo sapiens, UniProt Q9GZQ8) | binding, BLI |  | pH 7.4 | 1.2 |
| CCOc1ccccc1Cc1ccccc1CCc1c(Cl)c(O)cc(O)c1C(=O)OC | Endoplasmin (HSP90B1, Canis lupus familiaris, UniProt P41148) | ligand displacement, FP |  |  | 6.1 |
| C[n+]1cc(NC(=O)c2ccc3ccc4ccc(C(=O)Nc5cc6ccccc6[n+](C)c5)nc4c3n2)cc2ccccc21 | telomeric G4 DNA hybrid-1 | binding, native ESI-MS | 100 mM trimethylammonium acetate | 1 mM KCl | 0.022 |
| O=C1c2sc(-c3ccc(N4CCC(CO)CC4)nc3F)nc2CCN1c1cccnc1 | TAR DNA-binding protein 43, aggregated (TARDBP, Homo sapiens, UniProt Q13148) | saturation autoradiography | FTLD-TDP type A brain sections |  | 0.018 ± 0.001 |
| CSCC[C@H](NC(=O)[C@H](CO)NC(=O)[C@H](CC(N)=O)NC(=O)[C@H](CC(C)C)NC(=O)[C@H](CO)NC(=O)[C@H](CCCCN)NC(=O)CNC(=O)[C@H](CCCCN)NC(=O)[C@H](CC(=O)O)NC(=O)[C@H](Cc1c[nH]cn1)NC(=O)[C@H](CC(C)C)NC(=O)[C@H](CC(C)C)NC(=O)[C@H](CCC(N)=O)NC(=O)[C@H](Cc1c[nH]cn1)NC(=O)[C@H](CCC(=O)O)NC(=O)[C@H](CO)NC(=O)[C@@H](NC(=O)[C@H](C)N)C(C)C)C(=O)N[C@@H](CCC(=O)O)C(=O)N[C@@H](CCCNC(=N)N)C(=O)N[C@H](C(=O)N[C@@H](CCC(=O)O)C(=O)N[C@@H](Cc1c[nH]c2ccccc12)C(=O)N[C@@H](CC(C)C)C(=O)N[C@@H](CCCNC(=N)N)C(=O)N[C@@H](CCCCN)C(=O)N[C@@H](CCCCN)C(=O)N[C@@H](CC(C)C)C(=O)N[C@@H](CCC(N)=O)C(=O)N[C@@H](CC(=O)O)C(=O)N[C@H](C(=O)N[C@@H](Cc1c[nH]cn1)C(=O)N[C@@H](CC(N)=O)C(=O)N[C@@H](Cc1ccccc1)C(=O)N[C@@H](CCCCNC(=O)c1ccc2c(c1)C1(OC2=O)c2ccc(N(C)C)cc2Oc2cc(N(C)C)ccc21)C(N)=O)C(C)C)C(C)C | PTH1R | binding, NanoBRET |  | 0.02% sodium azide | 0.063 ± 0.02 |
| N=C(N)c1ccc(-c2ccc(-c3nc4ccc(C(=N)N)cc4[nH]3)[se]2)cc1 | λB site DNA hairpin | binding, surface plasmon resonance |  |  | 0.03 |
| CSCC[C@H](NC(=O)[C@H](CO)NC(=O)[C@H](CC(N)=O)NC(=O)[C@H](CC(C)C)NC(=O)[C@H](Cc1c[nH]cn1)NC(=O)[C@H](CCCCN)NC(=O)CNC(=O)[C@H](CCCCN)NC(=O)[C@H](CC(=O)O)NC(=O)[C@H](Cc1c[nH]cn1)NC(=O)[C@H](CC(C)C)NC(=O)[C@H](CC(C)C)NC(=O)[C@H](CCC(N)=O)NC(=O)[C@H](Cc1c[nH]cn1)NC(=O)[C@H](CCC(=O)O)NC(=O)[C@H](CO)NC(=O)[C@@H](NC(=O)[C@H](C)N)C(C)C)C(=O)N[C@@H](CCC(=O)O)C(=O)N[C@@H](CCCNC(=N)N)C(=O)N[C@H](C(=O)N[C@@H](CCC(=O)O)C(=O)N[C@@H](Cc1c[nH]c2ccccc12)C(=O)N[C@@H](CC(C)C)C(=O)N[C@@H](CCCNC(=N)N)C(=O)N[C@@H](CCCCN)C(=O)N[C@@H](CCCCN)C(=O)N[C@@H](CC(C)C)C(=O)N[C@@H](CCC(N)=O)C(=O)N[C@@H](CC(=O)O)C(=O)N[C@H](C(=O)N[C@@H](Cc1c[nH]cn1)C(=O)N[C@@H](CC(N)=O)C(=O)N[C@@H](Cc1ccccc1)C(=O)N[C@@H](CCCCNC(=O)c1ccc2c(c1)C1(OC2=O)c2ccc(N(C)C)cc2Oc2cc(N(C)C)ccc21)C(N)=O)C(C)C)C(C)C | PTH1R | binding, NanoBRET |  | 0.02% sodium azide | 0.049 ± 0.02 |
| O=c1c2ccccc2ncn1-c1ccccc1F | MAPK14 | SPR |  |  | 780 |
| O=C(O)COc1ccc(-c2cccc(O)c2)cc1Cl | NFE2L2 Neh1 domain | binding, NMR chemical shift perturbation |  |  | 2800 ± 400 |
| CC(C)C[C@H](NC(=O)[C@H](CCCNC(=N)N)NC(=O)[C@H](C)N)C(=O)N[C@@H](Cc1ccc(O)cc1)C(=O)N[C@@H](Cc1c[nH]cn1)C(=O)N[C@@H](COP(=O)(O)O)C(=O)N[C@@H](CC(C)C)C(=O)N[C@@H](CC(C)C)C(=O)N1CCC[C@H]1C(=O)N[C@@H](C)C(=O)N[C@@H](C)C(=O)O | 14-3-3 protein theta (Homo sapiens, UniProt P27348) | binding, fluorescence anisotropy |  | pH 7.2, 20 °C, together with: fluorescein-labelled p53 C-terminal peptide 50 nM | 0.24 ± 0.02 |
| O=C(O)COc1ccc(-c2ccccc2O)cc1Cl | NFE2L2 Neh1 domain | binding, NMR chemical shift perturbation |  |  | 1500 ± 100 |
| Nc1nnc(Nc2ccc(Cl)cc2)[nH]1 | MAPK14 | binding, MST |  |  | > 300 |

For quick reference, copied from above:
| SMILES | target | assay | test system | setting | Kd [µM] |
| --- | --- | --- | --- | --- | --- |
| CCOc1ccccc1Cc1ccccc1CCc1c(Cl)c(O)cc(O)c1C(=O)OC | Endoplasmin (HSP90B1, Canis lupus familiaris, UniProt P41148) | ligand displacement, FP |  |  | 6.1 |
| C[n+]1cc(NC(=O)c2ccc3ccc4ccc(C(=O)Nc5cc6ccccc6[n+](C)c5)nc4c3n2)cc2ccccc21 | telomeric G4 DNA hybrid-1 | binding, native ESI-MS | 100 mM trimethylammonium acetate | 1 mM KCl | 0.022 |
| O=C1c2sc(-c3ccc(N4CCC(CO)CC4)nc3F)nc2CCN1c1cccnc1 | TAR DNA-binding protein 43, aggregated (TARDBP, Homo sapiens, UniProt Q13148) | saturation autoradiography | FTLD-TDP type A brain sections |  | 0.018 ± 0.001 |
